Measurements collected from several papers.
Lines come from different studies, so protocols differ.

NC(=O)N1c2ccccc2C=Cc2ccccc21 — adverse events incidence (item: eye disorders (SOC); human male; oral, dose not given, CTCAE on-treatment AEs): 13%
CNC(=O)c1ccc(-c2cnc3ncc(Cc4ccc5ncccc5c4)n3n2)cc1F — adverse events leading to treatment discontinuation (human, Japanese cohort; oral, 400 mg, organising pneumonia, any grade): 1 % patients
CC(C)N(CCCCOCC(=O)NS(C)(=O)=O)c1cnc(-c2ccccc2)c(-c2ccccc2)n1 — adverse event incidence (item: Presyncope; healthy male human; oral, 200 µg): 4.5%
C[C@@H](N)c1cc(Cl)ccc1Cn1c(=S)[nH]c(=O)c2[nH]ccc21 — adverse events causing discontinuation (human; oral, 2.5 mg single dose): 0%
CO[C@H]1/C=C/O[C@@]2(C)Oc3c(C)c(O)c4c(O)c(c(/C=N/N5CCN(C)CC5)c(O)c4c3C2=O)NC(=O)/C(C)=C\C=C\[C@H](C)[C@H](O)[C@@H](C)[C@@H](O)[C@@H](C)[C@H](OC(C)=O)[C@@H]1C — adverse event Irritability (healthy humans; oral, dose not given): 8.3%
O=C(COc1ccc(Cl)cc1)NC12CC(c3nnc([C@H]4C[C@@H](OC(F)(F)F)C4)o3)(C1)C2 — adverse event incidence (item: Myalgia; human; oral, 45 mg once daily, 14 days): 16.7%
O=C(Nc1cnccc1Cl)N1CCN(Cc2ccc3c(c2)OC(F)(F)O3)CC1 — adverse event incidence (item: Haematoma; human healthy young men; 10 mg, multiple dose): 0%
C[C@@H](c1nc(-c2ccc(C#N)cc2)cs1)[C@](O)(Cn1cncn1)c1cc(F)ccc1F — adverse event Constipation (healthy humans; oral, dose not given, with: ketoconazole): 8.3%
C=CC(=O)NC1CCN(c2ncc3ncnc(Nc4ccc(Oc5ccc6c(c5)ncn6C)c(C)c4)c3n2)CC1 — adverse events incidence (item: initial insomnia; human male; oral, dose not given, CTCAE on-treatment AEs): 0%
CO[C@H]1/C=C/O[C@@]2(C)Oc3c(C)c(O)c4c(O)c(c(/C=N/N5CCN(C)CC5)c(O)c4c3C2=O)NC(=O)/C(C)=C\C=C\[C@H](C)[C@H](O)[C@@H](C)[C@@H](O)[C@@H](C)[C@H](OC(C)=O)[C@@H]1C — adverse event incidence (item: respiratory thoracic mediastinal disorders; healthy human participants; oral, 600 mg, with: gepotidacin 1500 mg): 0%
